Experimental data of several laboratories.
A part holds a random share of what one study measured.
Chain of UniProt Q8TF76 (whole entry, looked up): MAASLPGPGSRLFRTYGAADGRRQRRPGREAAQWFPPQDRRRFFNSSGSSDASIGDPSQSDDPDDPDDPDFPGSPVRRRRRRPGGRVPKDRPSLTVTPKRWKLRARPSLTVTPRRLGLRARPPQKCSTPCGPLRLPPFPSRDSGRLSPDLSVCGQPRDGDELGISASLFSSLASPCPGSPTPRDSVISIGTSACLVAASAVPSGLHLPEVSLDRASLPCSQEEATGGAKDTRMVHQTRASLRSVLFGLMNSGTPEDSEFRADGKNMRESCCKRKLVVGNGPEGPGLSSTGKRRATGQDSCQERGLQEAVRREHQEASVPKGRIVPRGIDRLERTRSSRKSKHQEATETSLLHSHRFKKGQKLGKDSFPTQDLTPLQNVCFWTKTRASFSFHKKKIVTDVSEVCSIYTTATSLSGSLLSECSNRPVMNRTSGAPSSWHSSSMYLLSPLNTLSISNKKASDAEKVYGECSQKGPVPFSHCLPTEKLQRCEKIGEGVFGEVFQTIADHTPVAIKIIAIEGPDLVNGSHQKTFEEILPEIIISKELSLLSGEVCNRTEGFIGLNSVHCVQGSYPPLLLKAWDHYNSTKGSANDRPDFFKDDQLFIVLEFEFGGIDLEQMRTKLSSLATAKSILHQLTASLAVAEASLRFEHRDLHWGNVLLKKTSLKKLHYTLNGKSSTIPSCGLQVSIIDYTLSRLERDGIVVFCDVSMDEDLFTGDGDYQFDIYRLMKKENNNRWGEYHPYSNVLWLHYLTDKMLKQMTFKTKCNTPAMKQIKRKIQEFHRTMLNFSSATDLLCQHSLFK
Chain of UniProt Q8TBX8 (whole entry, looked up): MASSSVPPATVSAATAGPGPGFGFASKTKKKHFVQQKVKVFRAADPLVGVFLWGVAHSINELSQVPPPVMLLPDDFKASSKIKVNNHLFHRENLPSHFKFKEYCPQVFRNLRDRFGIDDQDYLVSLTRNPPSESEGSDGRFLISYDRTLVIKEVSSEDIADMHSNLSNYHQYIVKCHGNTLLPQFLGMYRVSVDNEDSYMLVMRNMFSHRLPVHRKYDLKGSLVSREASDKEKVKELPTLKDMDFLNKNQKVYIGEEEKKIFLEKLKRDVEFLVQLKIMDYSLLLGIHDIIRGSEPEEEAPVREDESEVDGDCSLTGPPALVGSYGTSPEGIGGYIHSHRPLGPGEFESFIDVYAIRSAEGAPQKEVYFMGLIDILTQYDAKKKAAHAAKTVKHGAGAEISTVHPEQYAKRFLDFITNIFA
Chain of UniProt Q9NSY1 (whole entry, looked up): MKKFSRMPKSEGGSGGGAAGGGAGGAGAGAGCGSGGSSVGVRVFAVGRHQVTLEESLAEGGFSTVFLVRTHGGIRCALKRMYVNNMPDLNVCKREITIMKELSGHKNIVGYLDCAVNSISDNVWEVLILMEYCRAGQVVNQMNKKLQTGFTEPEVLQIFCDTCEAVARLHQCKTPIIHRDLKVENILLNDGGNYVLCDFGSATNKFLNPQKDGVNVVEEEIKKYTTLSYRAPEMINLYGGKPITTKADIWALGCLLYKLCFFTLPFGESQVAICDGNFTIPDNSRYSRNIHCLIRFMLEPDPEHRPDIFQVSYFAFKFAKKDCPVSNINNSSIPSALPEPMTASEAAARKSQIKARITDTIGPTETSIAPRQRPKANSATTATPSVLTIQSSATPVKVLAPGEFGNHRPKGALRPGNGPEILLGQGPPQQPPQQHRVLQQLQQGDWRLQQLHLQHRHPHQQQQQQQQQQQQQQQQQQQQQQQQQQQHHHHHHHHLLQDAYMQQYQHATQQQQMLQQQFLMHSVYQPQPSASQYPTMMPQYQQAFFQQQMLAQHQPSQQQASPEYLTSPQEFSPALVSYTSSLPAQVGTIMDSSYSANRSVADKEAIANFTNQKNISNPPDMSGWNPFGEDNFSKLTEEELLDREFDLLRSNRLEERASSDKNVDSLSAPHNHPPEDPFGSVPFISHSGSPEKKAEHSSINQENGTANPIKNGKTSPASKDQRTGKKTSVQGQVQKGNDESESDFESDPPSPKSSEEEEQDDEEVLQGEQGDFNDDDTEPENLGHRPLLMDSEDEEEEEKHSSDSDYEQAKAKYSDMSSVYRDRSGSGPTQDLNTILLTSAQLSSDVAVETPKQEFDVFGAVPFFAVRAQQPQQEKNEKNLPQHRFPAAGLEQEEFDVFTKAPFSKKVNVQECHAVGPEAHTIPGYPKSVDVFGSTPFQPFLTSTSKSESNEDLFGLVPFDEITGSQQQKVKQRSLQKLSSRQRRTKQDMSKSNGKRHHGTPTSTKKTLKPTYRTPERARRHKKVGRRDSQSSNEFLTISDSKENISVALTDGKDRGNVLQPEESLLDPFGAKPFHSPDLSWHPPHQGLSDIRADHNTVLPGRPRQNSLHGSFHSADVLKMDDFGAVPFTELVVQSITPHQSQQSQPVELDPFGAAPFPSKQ
Chain of UniProt P49841 (whole entry, looked up): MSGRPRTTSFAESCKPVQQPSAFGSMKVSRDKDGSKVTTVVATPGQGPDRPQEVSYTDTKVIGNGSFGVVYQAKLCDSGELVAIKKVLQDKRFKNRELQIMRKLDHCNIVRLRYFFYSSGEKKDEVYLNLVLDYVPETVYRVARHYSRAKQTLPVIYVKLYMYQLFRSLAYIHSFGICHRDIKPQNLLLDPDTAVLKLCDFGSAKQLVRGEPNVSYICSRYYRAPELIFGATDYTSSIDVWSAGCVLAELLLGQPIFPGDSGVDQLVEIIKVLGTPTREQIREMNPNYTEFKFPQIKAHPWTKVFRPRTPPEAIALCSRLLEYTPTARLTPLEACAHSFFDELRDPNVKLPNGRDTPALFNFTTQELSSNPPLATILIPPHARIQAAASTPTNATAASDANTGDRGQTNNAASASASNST
Chain of UniProt Q13873 (whole entry, looked up): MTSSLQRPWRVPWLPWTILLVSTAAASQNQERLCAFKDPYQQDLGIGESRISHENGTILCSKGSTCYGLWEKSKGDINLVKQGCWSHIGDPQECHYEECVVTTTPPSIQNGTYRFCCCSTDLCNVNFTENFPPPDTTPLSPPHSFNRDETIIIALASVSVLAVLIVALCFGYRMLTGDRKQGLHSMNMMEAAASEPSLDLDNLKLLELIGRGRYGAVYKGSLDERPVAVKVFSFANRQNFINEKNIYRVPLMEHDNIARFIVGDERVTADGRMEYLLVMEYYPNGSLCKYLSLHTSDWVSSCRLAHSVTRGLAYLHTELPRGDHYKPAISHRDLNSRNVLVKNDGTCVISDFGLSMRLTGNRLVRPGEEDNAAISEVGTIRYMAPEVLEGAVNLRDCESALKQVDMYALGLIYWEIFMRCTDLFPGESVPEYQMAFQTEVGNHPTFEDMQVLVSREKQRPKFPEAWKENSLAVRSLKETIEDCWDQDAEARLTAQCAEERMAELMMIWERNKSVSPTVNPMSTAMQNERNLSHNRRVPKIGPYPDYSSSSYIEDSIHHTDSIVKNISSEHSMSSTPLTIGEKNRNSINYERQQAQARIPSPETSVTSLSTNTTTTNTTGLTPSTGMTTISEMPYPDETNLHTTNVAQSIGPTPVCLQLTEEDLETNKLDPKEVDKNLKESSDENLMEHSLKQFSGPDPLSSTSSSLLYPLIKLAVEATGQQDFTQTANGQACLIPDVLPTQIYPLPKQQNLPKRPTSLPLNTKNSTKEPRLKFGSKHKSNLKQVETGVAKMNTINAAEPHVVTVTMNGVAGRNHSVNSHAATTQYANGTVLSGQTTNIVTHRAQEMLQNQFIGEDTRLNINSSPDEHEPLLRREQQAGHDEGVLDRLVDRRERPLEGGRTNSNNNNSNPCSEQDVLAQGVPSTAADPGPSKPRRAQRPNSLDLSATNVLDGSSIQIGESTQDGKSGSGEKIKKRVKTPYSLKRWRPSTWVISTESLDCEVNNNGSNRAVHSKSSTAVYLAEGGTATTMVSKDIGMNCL
Chain of UniProt Q9UQB9 (whole entry, looked up): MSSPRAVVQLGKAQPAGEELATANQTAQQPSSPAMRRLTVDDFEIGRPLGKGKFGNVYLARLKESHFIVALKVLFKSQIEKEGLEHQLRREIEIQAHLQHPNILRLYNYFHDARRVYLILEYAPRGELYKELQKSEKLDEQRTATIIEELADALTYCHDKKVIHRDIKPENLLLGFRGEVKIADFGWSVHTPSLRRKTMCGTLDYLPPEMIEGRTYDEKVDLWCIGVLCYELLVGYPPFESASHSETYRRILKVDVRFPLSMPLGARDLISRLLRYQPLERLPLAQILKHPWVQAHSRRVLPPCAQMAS

Block 1 — host: human; matrix: microsomes or S9; concentration: 2 µM; time: 0.5 h; endpoint: remaining compound
CN(C)Cc1c(N)n(Cc2ccco2)c(=O)[nH]c1=O: 87.7%
N#Cc1c(N)c(-c2ccccc2)c(F)c2ccccc12: 16.1%
CCN1CC(CN(C)c2ncnc3sccc23)Oc2ccccc21 (stereo not drawn): 0.878%
COC(=O)Cn1nc2c3c(C)c(C)sc3ncn2c1=O: 0.316%
COc1cc2c(Nc3ccc(Br)cc3F)ncnc2cc1O: 79.8%
Cn1nccc1C1CN(Cc2noc3c2CC(C)(C)CC3)CCO1 (stereo not drawn): 13.3%
O=C(Cc1c(F)cccc1Cl)N1CCc2n[nH]c(=O)n2CC1: 13.6%
Cc1cc2oc(C(=O)N3CCN(C)CC3)c(C)c2cc1C: 0.0157%
Clc1ccc(-c2ccc(CNCCOc3ccccn3)o2)c(Cl)c1: 39.6%
Cc1ccc2c(=O)c(-c3nc(-c4ccccc4C)no3)cn(CC(=O)NC3CCc4ccccc43)c2n1 (stereo not drawn): 0.431%
COc1ccc(C2=NN(c3nc4ccccc4s3)C(=O)C2)cc1: 26.9%
CC(C)c1c(Cl)nc(NCCO)nc1N1CCN(C(=O)CO)CC1: 95.7%

Block 2 — effect on: enzyme activity; mode: inhibitor; concentration: 0.5 µM; relative to: control; endpoint: remaining activity
Target: Serine/threonine-protein kinase pim-1 (PIM1, Homo sapiens, UniProt P11309)
Chain of UniProt P11309 (whole entry, looked up): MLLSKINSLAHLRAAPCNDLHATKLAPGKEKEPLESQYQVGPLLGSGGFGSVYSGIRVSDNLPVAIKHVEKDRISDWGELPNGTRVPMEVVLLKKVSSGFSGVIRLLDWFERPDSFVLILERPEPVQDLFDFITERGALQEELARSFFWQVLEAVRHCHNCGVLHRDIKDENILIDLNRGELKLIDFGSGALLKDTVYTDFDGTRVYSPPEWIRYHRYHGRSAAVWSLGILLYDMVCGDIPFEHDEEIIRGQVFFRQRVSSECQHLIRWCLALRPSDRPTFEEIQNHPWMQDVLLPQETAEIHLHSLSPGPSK
Cn1nc2c3c(cccc31)C(=O)c1ccccc1-2: 80.3%
CCN(CC)CCNC(=O)c1c(C)[nH]c(/C=C2\C(=O)Nc3ccc(Cl)cc32)c1C: 91.7%
COc1cc2c(cc1OC)-c1[nH]nc(Nc3cccc(F)c3)c1C2: 97.2%
O=C(Nc1cccc(Nc2nccc(Nc3cccc(C(F)(F)F)c3)n2)c1)C1CC1: 103%
CCOc1nc(NC(=O)Cc2cc(OC)ccc2OC)cc(N)c1C#N: 104%
c1ccc(-c2[nH]ncc2-c2ccnc3ccccc23)nc1: 107%
N#C/C(=C\c1ccc(O)c(O)c1)C(=O)NCc1ccccc1: 108%
Nc1cccc(-c2cc3c(Oc4cccc(O)c4)ncnc3[nH]2)c1: 85.9%
Cc1cn(-c2cc(NC(=O)c3ccc(C)c(Nc4nccc(-c5cccnc5)n4)c3)cc(C(F)(F)F)c2)cn1: 97.4%
Cc1nc2cc3nc(-c4cccs4)cnc3cc2n1C: 103%
O=C1c2ccccc2-c2n[nH]c3cccc1c23: 61.2%
CN([C@@H](Cc1ccc(OS(=O)(=O)c2cccc3cnccc23)cc1)C(=O)N1CCN(c2ccccc2)CC1)S(=O)(=O)c1cccc2cnccc12: 106%

Block 3 — cell line: HuT78; time: 10 h; endpoint: remaining activity
Structure (SMILES): CC(C)(C)c1cnc(CSc2cnc(NC(=O)C3CCN(CCCCCSc4cccc5c4CN(C4CCC(=O)NC4=O)C5=O)CC3)s2)o1 (stereo not drawn)
Target: Cyclin-dependent kinase 9 (CDK9, Homo sapiens, UniProt P50750)
Chain of UniProt P50750 (whole entry, looked up): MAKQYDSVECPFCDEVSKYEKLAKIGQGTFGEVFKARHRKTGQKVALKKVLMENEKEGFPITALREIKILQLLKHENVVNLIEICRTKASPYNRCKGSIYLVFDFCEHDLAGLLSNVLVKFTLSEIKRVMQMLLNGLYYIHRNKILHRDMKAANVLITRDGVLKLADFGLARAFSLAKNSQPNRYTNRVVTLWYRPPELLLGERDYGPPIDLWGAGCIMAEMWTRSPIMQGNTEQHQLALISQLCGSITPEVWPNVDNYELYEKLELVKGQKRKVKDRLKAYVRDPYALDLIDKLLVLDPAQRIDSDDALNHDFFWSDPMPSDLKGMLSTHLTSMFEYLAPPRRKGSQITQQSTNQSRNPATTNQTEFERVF
0.0001 µM: 84.7%
0.05 µM: 24.5%
0.01 µM: 47.8%
0.5 µM: 37.3%
0.001 µM: 75.9%

Block 4 — method: competition with immobilised ligand; concentration: 1 µM; endpoint: remaining binding
SMILES: CCc1ccccc1C(=O)Nc1n[nH]c2c(C)c(F)c(C3C(C#N)=C(C)N(C)C(C)=C3C#N)cc12
Aurora kinase C (AURKC, Homo sapiens, UniProt Q9UQB9); cell-free assay: 29%
Phosphatidylinositol 5-phosphate 4-kinase type-2 gamma (PIP4K2C, Homo sapiens, UniProt Q8TBX8); binding: 77%
Glycogen synthase kinase-3 beta (GSK3B, Homo sapiens, UniProt P49841); cell-free assay: 100%
Bone morphogenetic protein receptor type-2 (BMPR2, Homo sapiens, UniProt Q13873); cell-free assay: 100%
Serine/threonine-protein kinase haspin (HASPIN, Homo sapiens, UniProt Q8TF76); cell-free assay: 100%
Epidermal growth factor receptor (EGFR, Homo sapiens, UniProt P00533, T790M); cell-free assay: 100%
Epidermal growth factor receptor (EGFR, Homo sapiens, UniProt P00533, L858R); cell-free assay: 93%
BMP-2-inducible protein kinase (BMP2K, Homo sapiens, UniProt Q9NSY1); cell-free assay: 100%
Serine/threonine-protein kinase SIK2 (SIK2, Homo sapiens, UniProt Q9H0K1); cell-free assay: 69%
Receptor-type tyrosine-protein kinase FLT3 (FLT3, Homo sapiens, UniProt P36888, D835V/ITD); cell-free assay: 12%
